Experimental data of several laboratories.
Protocols differ between the studies behind these lines.
UniProt P34969, sequence (whole entry, looked up): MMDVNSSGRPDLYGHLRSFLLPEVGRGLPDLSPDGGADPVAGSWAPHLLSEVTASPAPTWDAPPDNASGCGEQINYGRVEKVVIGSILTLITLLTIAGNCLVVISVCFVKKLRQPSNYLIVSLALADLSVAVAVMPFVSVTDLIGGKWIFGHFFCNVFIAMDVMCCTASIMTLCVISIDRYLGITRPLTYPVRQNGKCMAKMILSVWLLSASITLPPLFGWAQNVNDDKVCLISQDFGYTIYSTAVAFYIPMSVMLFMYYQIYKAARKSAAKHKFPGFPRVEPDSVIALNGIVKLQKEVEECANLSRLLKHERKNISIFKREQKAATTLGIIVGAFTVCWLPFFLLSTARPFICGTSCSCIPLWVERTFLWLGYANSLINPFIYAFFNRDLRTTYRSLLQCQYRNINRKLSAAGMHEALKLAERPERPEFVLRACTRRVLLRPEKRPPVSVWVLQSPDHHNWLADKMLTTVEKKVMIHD
UniProt P08311, sequence (whole entry, looked up): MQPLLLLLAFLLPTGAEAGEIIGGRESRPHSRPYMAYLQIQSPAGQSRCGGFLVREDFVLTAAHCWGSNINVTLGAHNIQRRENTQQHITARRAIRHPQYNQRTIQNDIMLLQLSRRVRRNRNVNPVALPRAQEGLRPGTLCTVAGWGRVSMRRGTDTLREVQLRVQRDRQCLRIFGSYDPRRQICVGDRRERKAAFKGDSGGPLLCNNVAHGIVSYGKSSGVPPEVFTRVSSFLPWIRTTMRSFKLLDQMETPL
UniProt P23458, sequence (whole entry, looked up): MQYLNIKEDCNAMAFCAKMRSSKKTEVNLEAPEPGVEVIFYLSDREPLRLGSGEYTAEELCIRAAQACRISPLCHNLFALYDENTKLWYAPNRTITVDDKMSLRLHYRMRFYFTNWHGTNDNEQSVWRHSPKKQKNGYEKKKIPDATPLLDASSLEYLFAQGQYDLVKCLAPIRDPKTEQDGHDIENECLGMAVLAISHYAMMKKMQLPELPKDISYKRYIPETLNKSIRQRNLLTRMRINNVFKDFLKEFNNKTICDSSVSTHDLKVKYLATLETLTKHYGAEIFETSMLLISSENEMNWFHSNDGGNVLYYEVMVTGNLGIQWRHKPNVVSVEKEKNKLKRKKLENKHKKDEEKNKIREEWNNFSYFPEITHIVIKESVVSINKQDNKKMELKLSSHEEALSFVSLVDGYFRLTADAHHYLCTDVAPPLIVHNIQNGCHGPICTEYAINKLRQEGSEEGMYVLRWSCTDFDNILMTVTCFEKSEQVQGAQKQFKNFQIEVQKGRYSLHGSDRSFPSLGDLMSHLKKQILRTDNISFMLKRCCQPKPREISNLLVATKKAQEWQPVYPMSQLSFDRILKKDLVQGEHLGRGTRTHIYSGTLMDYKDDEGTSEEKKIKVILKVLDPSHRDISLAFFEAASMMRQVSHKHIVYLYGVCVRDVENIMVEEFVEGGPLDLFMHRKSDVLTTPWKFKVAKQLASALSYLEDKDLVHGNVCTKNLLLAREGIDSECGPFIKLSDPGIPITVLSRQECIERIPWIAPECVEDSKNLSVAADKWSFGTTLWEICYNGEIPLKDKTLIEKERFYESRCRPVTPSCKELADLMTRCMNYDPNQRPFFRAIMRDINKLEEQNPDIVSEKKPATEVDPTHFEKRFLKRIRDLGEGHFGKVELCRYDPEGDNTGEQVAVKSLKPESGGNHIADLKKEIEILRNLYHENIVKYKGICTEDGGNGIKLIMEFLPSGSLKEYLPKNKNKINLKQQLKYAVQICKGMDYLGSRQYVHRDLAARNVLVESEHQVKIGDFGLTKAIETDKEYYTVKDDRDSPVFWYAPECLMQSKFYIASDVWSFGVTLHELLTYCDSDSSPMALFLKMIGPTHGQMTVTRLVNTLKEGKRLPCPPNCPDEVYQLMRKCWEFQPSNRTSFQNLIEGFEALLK
UniProt Q13263, sequence (whole entry, unmodified, looked up): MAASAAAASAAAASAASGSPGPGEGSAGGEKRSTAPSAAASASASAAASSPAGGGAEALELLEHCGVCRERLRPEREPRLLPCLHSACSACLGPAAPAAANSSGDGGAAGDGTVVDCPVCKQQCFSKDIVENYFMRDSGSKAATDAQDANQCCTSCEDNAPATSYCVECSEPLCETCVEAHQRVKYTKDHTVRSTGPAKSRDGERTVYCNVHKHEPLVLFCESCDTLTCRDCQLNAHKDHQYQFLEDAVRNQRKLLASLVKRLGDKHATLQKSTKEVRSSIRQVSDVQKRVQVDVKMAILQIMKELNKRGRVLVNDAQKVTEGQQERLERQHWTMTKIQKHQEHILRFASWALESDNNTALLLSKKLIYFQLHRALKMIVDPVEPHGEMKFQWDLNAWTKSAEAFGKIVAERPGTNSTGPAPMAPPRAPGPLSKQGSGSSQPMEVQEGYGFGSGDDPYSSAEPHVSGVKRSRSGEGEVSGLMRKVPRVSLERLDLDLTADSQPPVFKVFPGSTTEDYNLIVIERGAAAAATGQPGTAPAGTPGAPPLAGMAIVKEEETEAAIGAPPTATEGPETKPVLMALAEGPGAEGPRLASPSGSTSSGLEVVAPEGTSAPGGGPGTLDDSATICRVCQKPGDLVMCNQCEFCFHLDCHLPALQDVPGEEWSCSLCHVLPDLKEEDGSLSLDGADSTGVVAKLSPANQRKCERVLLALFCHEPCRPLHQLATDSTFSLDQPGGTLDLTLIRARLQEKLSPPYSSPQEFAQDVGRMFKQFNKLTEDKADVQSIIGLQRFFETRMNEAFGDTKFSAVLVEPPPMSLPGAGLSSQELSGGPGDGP
UniProt P37023, sequence (whole entry, looked up): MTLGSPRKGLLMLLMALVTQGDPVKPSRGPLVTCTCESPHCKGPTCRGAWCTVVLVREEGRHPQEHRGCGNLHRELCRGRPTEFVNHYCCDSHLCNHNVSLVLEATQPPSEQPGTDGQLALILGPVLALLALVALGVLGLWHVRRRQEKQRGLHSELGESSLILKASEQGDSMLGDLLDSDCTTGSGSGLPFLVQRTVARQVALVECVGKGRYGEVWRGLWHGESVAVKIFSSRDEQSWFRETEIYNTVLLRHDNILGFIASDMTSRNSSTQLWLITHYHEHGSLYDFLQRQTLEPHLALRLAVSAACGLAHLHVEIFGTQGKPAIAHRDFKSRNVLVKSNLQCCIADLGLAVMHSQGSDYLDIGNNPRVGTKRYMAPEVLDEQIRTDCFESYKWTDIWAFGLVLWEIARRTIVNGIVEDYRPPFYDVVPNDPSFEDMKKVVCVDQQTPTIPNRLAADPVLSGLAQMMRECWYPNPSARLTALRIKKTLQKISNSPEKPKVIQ
UniProt P16234, sequence (whole entry, looked up): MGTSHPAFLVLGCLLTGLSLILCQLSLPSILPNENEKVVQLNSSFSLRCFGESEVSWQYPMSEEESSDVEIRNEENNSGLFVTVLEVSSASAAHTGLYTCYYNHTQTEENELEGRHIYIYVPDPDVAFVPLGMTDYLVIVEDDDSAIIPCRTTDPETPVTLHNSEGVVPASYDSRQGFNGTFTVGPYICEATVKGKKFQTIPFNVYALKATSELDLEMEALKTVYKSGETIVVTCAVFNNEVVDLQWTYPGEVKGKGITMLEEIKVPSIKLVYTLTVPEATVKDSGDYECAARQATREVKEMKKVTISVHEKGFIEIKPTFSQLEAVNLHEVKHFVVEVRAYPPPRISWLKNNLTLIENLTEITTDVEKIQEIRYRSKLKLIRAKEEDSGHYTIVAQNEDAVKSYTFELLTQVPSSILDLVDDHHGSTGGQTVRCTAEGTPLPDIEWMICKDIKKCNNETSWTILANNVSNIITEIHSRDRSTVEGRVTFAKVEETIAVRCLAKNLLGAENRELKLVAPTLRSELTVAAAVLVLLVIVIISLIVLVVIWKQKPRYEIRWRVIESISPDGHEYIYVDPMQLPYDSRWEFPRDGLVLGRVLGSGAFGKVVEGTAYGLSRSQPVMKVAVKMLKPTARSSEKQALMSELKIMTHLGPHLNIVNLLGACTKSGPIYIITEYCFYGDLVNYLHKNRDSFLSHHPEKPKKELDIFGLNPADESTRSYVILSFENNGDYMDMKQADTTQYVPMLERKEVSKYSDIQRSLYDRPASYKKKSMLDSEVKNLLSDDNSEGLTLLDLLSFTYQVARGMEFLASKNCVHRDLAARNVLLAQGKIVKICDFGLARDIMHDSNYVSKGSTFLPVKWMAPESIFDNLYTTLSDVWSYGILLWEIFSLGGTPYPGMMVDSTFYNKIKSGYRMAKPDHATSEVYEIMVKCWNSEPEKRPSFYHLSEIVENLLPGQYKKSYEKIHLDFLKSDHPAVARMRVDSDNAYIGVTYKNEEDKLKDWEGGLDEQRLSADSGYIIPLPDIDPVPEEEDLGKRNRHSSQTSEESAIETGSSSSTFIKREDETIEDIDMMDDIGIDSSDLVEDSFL

SMILES	target	effect on	mode	technique	concentration	quantity	result
c1cncc([C@@H]2CCCN2)c1	5-hydroxytryptamine receptor 7 (HTR7, Homo sapiens, UniProt P34969)	ligand displacement			50 µM	inhibition	-35.5%
C#Cc1n[nH]c2c(-c3cn([C@@H](C)c4ccccn4)c(=O)[nH]c3=O)cc(F)cc12	Tyrosine-protein kinase JAK1 (JAK1, Homo sapiens, UniProt P23458)	enzyme activity	inhibitor		0.1 µM	inhibition	0.7%
Cc1nn(C)cc1-c1nc2c(N3CCN(Cc4ccc(Cl)cc4)CC3)c(Cl)cnc2[nH]1	Platelet-derived growth factor receptor alpha (PDGFRA, Homo sapiens, UniProt P16234)	binding		competition with immobilised ligand	1 µM	remaining binding	93%
[2H]c1c([2H])c([C@]2([2H])CCCN2C(=O)C(C)(C)Oc2ccc3cn[nH]c3c2)c([2H])c([2H])c1C([2H])([2H])[2H]	Serine/threonine-protein kinase Nek4 (NEK4, Homo sapiens, UniProt P51957)	binding		competition with immobilised ligand	1 µM	remaining binding	100%
COc1ncccc1-c1cnn2ccc(N3CCN(C(=O)OC(C)C)CC3)nc12	Serine/threonine-protein kinase tousled-like 2 (TLK2, Homo sapiens, UniProt Q86UE8)	binding		competition with immobilised ligand	1 µM	remaining binding	72%
CCN(CC)CCCC[C@H](NC(=O)[C@H](CC(C)C)NC(=O)[C@H](C)NC(=O)[C@H](Cc1ccccc1)NC(=O)c1ccc(C(C)(C)C)cc1)C(=O)N[C@@H](CO)C(=O)OC	Transcription intermediary factor 1-beta (TRIM28, Homo sapiens, UniProt Q13263)	thermal stability		DSF	25 µM	ΔTm	0.47 °C
CC(C)CC(=O)OC[C@H]1O[C@@](C#N)(c2ccc3c(N)ncnn23)[C@H](O)[C@@H]1O	Cathepsin G (CTSG, Homo sapiens, UniProt P08311)	enzyme activity	inhibitor		20 µM	inhibition	3%
Nc1ncc(-c2nc(N3CCOCC3)nc(N3CCOCC3)n2)c(C(F)F)n1	Activin receptor type-1-like (ACVRL1, Homo sapiens, UniProt P37023)	binding		competition with immobilised ligand	10 µM	remaining binding	73%

Some of these lines once more:
SMILES	target	effect on	mode	technique	concentration	quantity	result
COc1ncccc1-c1cnn2ccc(N3CCN(C(=O)OC(C)C)CC3)nc12	Serine/threonine-protein kinase tousled-like 2 (TLK2, Homo sapiens, UniProt Q86UE8)	binding		competition with immobilised ligand	1 µM	remaining binding	72%
